{"data": "Measurements from different studies", "Gastric inhibitory polypeptide receptor": "Gastric inhibitory polypeptide receptor (Mus musculus, UniProt Q0P543)", "Replicase polyprotein 1ab main protease": "Replicase polyprotein 1ab, main protease (Human coronavirus OC43, UniProt P0C6X6)", "Genome polyprotein protease": "Genome polyprotein, protease (Coxsackievirus B3, UniProt P03313)", "DNA ligase A": "DNA ligase A (Mycobacterium tuberculosis, UniProt P9WNV1)", "gyrB with GyrA": "DNA gyrase subunit B, with GyrA (gyrB, Mycobacterium tuberculosis, UniProt P9WG45)", "Dihydrolipoyl dehydrogenase": "Dihydrolipoyl dehydrogenase (Mycobacterium tuberculosis, UniProt P9WHH9)", "rep main protease": "Replicase polyprotein 1ab, main protease (rep, Human coronavirus HKU1, UniProt P0C6X2)", "Adenosylmethionine-8-amino-7-oxononanoate aminotransferase": "Adenosylmethionine-8-amino-7-oxononanoate aminotransferase (Mycobacterium tuberculosis, UniProt P9WQ81)", "note": "Lines come from different studies, so protocols differ. ± marks the error that the study gave."}
{"Compound": "N#Cc1c(N)nc(SCc2ncc[nH]2)c(C#N)c1-c1ccc(O)cc1", "target": "ADORA2A (Homo sapiens, UniProt P29274)", "test": "binding", "IC50": "0.115 µM"}
{"Compound": "CC[C@H](C)[C@H](NC(=O)[C@H](CO)NC(=O)[C@H](Cc1ccc(O)cc1)NC(=O)[C@H](CC(=O)O)NC(=O)[C@H](CO)NC(=O)[C@@H](NC(=O)[C@H](Cc1ccccc1)NC(=O)[C@@H](NC(=O)CNC(=O)[C@H](CCC(=O)O)NC(=O)[C@H](C)NC(=O)[C@@H](N)Cc1ccc(O)cc1)[C@@H](C)O)[C@@H](C)CC)C(=O)N[C@@H](C)C(=O)N[C@@H](CCSC)C(=O)N[C@@H](CC(=O)O)C(=O)N[C@@H](CCCCN)C(=O)N[C@H](C(=O)N[C@@H](CCCNC(=N)N)C(=O)N[C@@H](CCC(N)=O)C(=O)N[C@@H](CCC(N)=O)C(=O)N[C@@H](CC(=O)O)C(=O)N[C@@H](Cc1ccccc1)C(=O)N[C@H](C(=O)N[C@@H](CC(N)=O)C(=O)N[C@@H](Cc1c[nH]c2ccccc12)C(=O)N[C@@H](CC(C)C)C(=O)N[C@@H](CC(C)C)C(=O)N[C@@H](C)C(=O)N[C@@H](CCC(N)=O)C(=O)N[C@@H](CCCCN)C(=O)NCC(=O)N[C@@H](CCCCN)C(=O)N[C@@H](CCCCN)C(=O)N[C@@H](CC(N)=O)C(=O)N[C@@H](CC(=O)O)C(=O)N[C@@H](Cc1c[nH]c2ccccc12)C(=O)N[C@@H](CCCCN)C(=O)N[C@@H](Cc1c[nH]cn1)C(=O)N[C@@H](CC(N)=O)C(=O)N[C@@H](CC(C)C)C(=O)N[C@H](C(=O)N[C@@H](CCC(N)=O)C(=O)O)[C@@H](C)O)C(C)C)[C@@H](C)CC", "target": "Gastric inhibitory polypeptide receptor", "conditions": "4 h, 4 °C", "IC50": "0.000251 µM"}
{"Compound": "C=CC(=O)NC(CC(=C)C)C(=O)N1CC(C(=O)NC(Cc2ccco2)C(=O)NC)C(c2cccc(C(F)(F)F)c2)C1 (stereo not shown)", "target": "Replicase polyprotein 1ab main protease", "IC50": "> 100 µM"}
{"Compound": "O=C1C=CC(=O)c2cn(Cc3ccccc3)cc21", "target": "Genome polyprotein protease", "test": "enzyme activity, inhibitor", "IC50": "> 50 µM"}
{"Compound": "Cc1cccc(C)c1N1Cc2cnc(Nc3ccc(N4CCN(C)CC4)cc3)nc2N(C23CC4CC(CC(C4)C2)C3)C1=O", "target": "SIK3 (Homo sapiens, UniProt Q9Y2K2)", "test": "enzyme activity, inhibitor", "IC50": "> 0.02 µM"}
{"Compound": "CC1(C)OC2OC(C(CCO)NCCCNC(CCO)C3OC4OC(C)(C)OC4C3OCc3ccccc3)C(OCc3ccccc3)C2O1 (stereo not shown)", "target": "DNA ligase A", "test": "enzyme activity, inhibitor", "conditions": "1 h, 25 °C, 10% DMSO, with: 50 µM NAD+", "IC50": "46.2 ± 1.6 µM"}
{"Compound": "Fc1ccccc1CCNCc1cccc(Cl)c1Cl", "target": "SLC6A2 (Homo sapiens, UniProt P23975)", "test": "transporter uptake, inhibitor, radiometric", "IC50": "5.57 µM"}
{"Compound": "C=CC(=O)NC(CC(=C)C)C(=O)N1CC(C(=O)NC(C(=O)NC)C(C)CC)C(c2cccc(C(F)(F)F)c2)C1 (stereo not shown)", "target": "Replicase polyprotein 1ab main protease", "IC50": "> 100 µM"}
{"Compound": "CC1C(=NOCc2cc(-c3ccc(Cl)cc3)no2)C(C)C(c2ccc(Br)cc2)OC1c1ccc(Br)cc1 (stereo not shown)", "target": "gyrB with GyrA", "test": "ATPase activity, inhibitor", "IC50": "10.5 µM"}
{"Compound": "COc1ccc2cc(CCC(=O)CC(Nc3ccc(C(=O)O)cc3)c3ccc(Cl)cc3)ccc2c1 (stereo not shown)", "target": "Isocitrate lyase (icl, Mycobacterium tuberculosis, UniProt P9WKK7)", "test": "enzyme activity, inhibitor, absorbance", "IC50": "110 µM"}
{"Compound": "CC[C@H](C)[C@H](NC(=O)[C@H](CO)NC(=O)[C@H](Cc1ccc(O)cc1)NC(=O)[C@H](CC(=O)O)NC(=O)[C@H](CO)NC(=O)[C@@H](NC(=O)[C@H](Cc1ccccc1)NC(=O)[C@@H](NC(=O)CNC(=O)[C@@H]1CCCN1C(=O)[C@H](C)NC(=O)[C@@H](N)Cc1ccc(O)cc1)[C@@H](C)O)[C@@H](C)CC)C(=O)N[C@@H](C)C(=O)N[C@@H](CCSC)C(=O)N[C@@H](CC(=O)O)C(=O)N[C@@H](CCCCN)C(=O)N[C@H](C(=O)N[C@@H](CCCNC(=N)N)C(=O)N[C@@H](CCC(N)=O)C(=O)N[C@@H](CCC(N)=O)C(=O)N[C@@H](CC(=O)O)C(=O)N[C@@H](Cc1ccccc1)C(=O)N[C@H](C(=O)N[C@@H](CC(N)=O)C(=O)N[C@@H](Cc1c[nH]c2ccccc12)C(=O)N[C@@H](CC(C)C)C(=O)N[C@@H](CC(C)C)C(=O)N[C@@H](C)C(=O)N[C@@H](CCC(N)=O)C(=O)N[C@@H](CCCNC(=N)N)C(=O)NCC(=O)N[C@@H](CCCCN)C(=O)N[C@@H](CCCCN)C(=O)N[C@@H](CO)C(=O)N[C@@H](CC(=O)O)C(=O)N[C@@H](Cc1c[nH]c2ccccc12)C(=O)N[C@@H](CCCCN)C(=O)N[C@@H](Cc1c[nH]cn1)C(=O)N[C@@H](CC(N)=O)C(=O)N[C@H](C(=O)N[C@H](C(=O)N[C@@H](CCC(N)=O)C(=O)O)[C@@H](C)O)[C@@H](C)CC)C(C)C)[C@@H](C)CC", "target": "Gastric inhibitory polypeptide receptor", "conditions": "4 h, 4 °C", "IC50": "0.00501 µM"}
{"Compound": "COc1cc(NC(=O)CN(C)S(=O)(=O)c2cc(C)cnc2N)ccn1", "target": "Dihydrolipoyl dehydrogenase", "test": "enzyme activity, inhibitor", "conditions": "with: 50 nM enzyme", "IC50": "0.196 µM"}
{"Compound": "C[n+]1ccc(C(=O)NCc2ccccc2)c(O)c1", "target": "RNA-directed RNA polymerase catalytic subunit (PB1, Influenza A virus, UniProt P03430)", "test": "polymerase activity, inhibitor, FLUPOL", "test system": "Influenza A virus A/WSN/33 (H1N1)", "IC50": "840 µM"}
{"Compound": "C=CC(=O)NC(CC(=C)C)C(=O)N1CC(C(=O)NC(CCSC)C(=O)NC)C(c2cccc(C(F)(F)F)c2)C1 (stereo not shown)", "target": "rep main protease", "IC50": "> 100 µM"}
{"Compound": "CCn1c(NCc2ccc(N3N=C(c4ccccc4)CC3c3ccccc3)cc2)nc2ccccc21 (stereo not shown)", "target": "Genome polyprotein protease", "test": "enzyme activity, inhibitor", "IC50": "6.5 µM"}
{"Compound": "COc1ccc(NC(=O)CN(C)S(=O)(=O)c2cc(C)cc3cn[nH]c23)cc1Cl", "target": "Dihydrolipoyl dehydrogenase", "test": "enzyme activity, inhibitor", "conditions": "with: 50 nM enzyme", "IC50": "0.035 µM"}
{"Compound": "COc1cc(CC(C#N)C(O)c2ccccc2)cc(I)c1O (stereo not shown)", "target": "Pup deamidase/depupylase (dop, Mycolicibacterium smegmatis, UniProt A0QZ49)", "test": "enzyme activity, inhibitor", "conditions": "30 min preincubation, with: Pup-Glu(AMC) substrate, ATP 1 mM", "IC50": "> 100 µM"}
{"Compound": "Cc1cnc(N)c(S(=O)(=O)N(C)CC(=O)Nc2ccc(=O)n(C)c2)c1", "target": "Dihydrolipoyl dehydrogenase", "test": "enzyme activity, inhibitor", "conditions": "with: 50 nM enzyme", "IC50": "2.75 µM"}
{"Compound": "C=C(C)C1C2OC(=O)C1C1(O)CC3OC34C(=O)OC2C14C (stereo not shown)", "target": "GABA-A receptor; GABA-A site (alpha1/beta2 interface) (Homo sapiens, UniProt P14867+P47870, V284A)", "test": "ion current, two-electrode voltage clamp", "conditions": "oocytes", "IC50": "24.5 µM"}
{"Compound": "CN1C/C(=C\\c2ccccc2)C2=NN(C(N)=S)[C@H](c3ccccc3)[C@@H]2C1", "target": "Adenosylmethionine-8-amino-7-oxononanoate aminotransferase", "test": "inhibitor, biochemical", "IC50": "189 ± 9.32 µM"}
{"Compound": "COc1ccccc1/N=C/c1nc(-c2ccccc2)oc1OC(C)=O", "target": "Genome polyprotein protease", "test": "enzyme activity, inhibitor", "IC50": "> 50 µM"}
{"Compound": "C=CCC(NC(=O)C1CN(C(=O)C(CC(=C)C)NC(=O)C=C)CC1c1cccc(C(F)(F)F)c1)C(=O)NC (stereo not shown)", "target": "rep main protease", "IC50": "> 100 µM"}
{"Compound": "CC1C(=NOCc2cc(-c3ccc(Cl)cc3)no2)C(C)C(c2ccc(Cl)cc2)OC1c1ccc(Cl)cc1 (stereo not shown)", "target": "gyrB with GyrA", "test": "ATPase activity, inhibitor", "IC50": "9.87 µM"}
{"Compound": "CCOCC1C(c2ccc(Cl)c(Cl)c2)CC2CCC1N2C (stereo not shown)", "target": "SLC6A3 (Homo sapiens, UniProt Q01959, F326A)", "test": "transporter uptake, inhibitor, radiometric", "IC50": "0.816 µM"}
{"Compound": "CC1(C)OC2OC(C(CCO)NC(=O)Nc3cccc(NC(=O)NC(CCO)C4OC5OC(C)(C)OC5C4OCc4ccccc4)c3)C(OCc3ccccc3)C2O1 (stereo not shown)", "target": "DNA ligase (Enterobacteria phage T4, UniProt P00970)", "test": "enzyme activity, inhibitor, radiometric", "IC50": "462 µM"}
{"Compound": "COC1OC2COC(c3ccccc3)OC2C(NC(=S)SCc2ccccc2)C1O (stereo not shown)", "target": "Adenosylmethionine-8-amino-7-oxononanoate aminotransferase", "test": "inhibitor, biochemical", "IC50": "100 µM"}
{"Compound": "CC1(C)O[C@H]2OC(CNCCCCCCCCCCCCNCC3O[C@@H]4OC(C)(C)O[C@@H]4[C@H]3OCc3ccccc3)[C@H](OCc3ccccc3)[C@H]2O1 (stereo partly shown)", "target": "DNA ligase A", "test": "enzyme activity, inhibitor", "conditions": "1 h, 25 °C, 10% DMSO, with: 50 µM NAD+", "IC50": "11.4 ± 1.2 µM"}
{"Compound": "CCCC[C@H]1C(=O)N[C@@H](C(C)C)C(=O)N[C@@H](Cc2ccc(O)cc2)C(=O)N[C@@H](C(C)C)C(=O)N[C@@H](CCCNC(=N)N)C(=O)N[C@@H](Cc2ccc(O)cc2)C(=O)N[C@@H](CCC(N)=O)C(=O)N(C)[C@@H](Cc2ccccc2)C(=O)N[C@H](C(N)=O)CSCC(=O)N[C@@H](Cc2ccccc2)C(=O)N[C@@H](Cc2c[nH]c3ccccc23)C(=O)N[C@@H](CC(C)C)C(=O)NCC(=O)N[C@@H](CCCCN)C(=O)N1C", "target": "AT-rich interactive domain-containing protein 1B (ARID1B, Homo sapiens, UniProt Q8NFD5)", "test": "binding, TR-FRET", "conditions": "1% DMSO, with: tracer 4-cy5 30 nM", "IC50": "0.038 µM"}
